Results pooled from the literature.
Each numbered part is a random draw from the data of one study; scales do not carry over between parts. Substitutions count along the parent as printed.

Study 1 — method: RNA Bind-n-Seq; form: RNA; matrix: in vitro; concentration: 365 nM; baseline: no-protein control; direction: higher = stronger binding; measurement: RBNS enrichment (R)
Target: RNA binding protein fox-1 homolog 2, RRM domain, GST-SBP tag (RBFOX2, Homo sapiens, UniProt O43251-10, residues 100-194)
Notes: natural RNA segment, single round, ends assumed
All sequences stand within: GGGAGUUCUACAGUCCGACGAUC … UGGAAUUCUCGGGUGCCAA
Residues (chain): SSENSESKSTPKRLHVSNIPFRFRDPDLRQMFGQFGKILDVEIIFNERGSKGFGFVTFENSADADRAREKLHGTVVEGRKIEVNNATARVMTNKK
CACUUCAGAGGGAUGGAGAAAGAAGUGGAGAAGGUCCUUAACCUGCAGUUUCUGCCUUUAAGCCAAAGAAACAAGCUGUGCGGACCUGGCCCAUUAAGAGGCCUCAGUGG: 0.659
AGCAGCUCCCCAGAAAAAAACGACACUGCGAGCCCUCGGGACAUGACUGAGUUCCACCUCCUGAAGCCAGACUCCACCUCUUGUGCUUUUUUGCUUGGGAAAAAGGAGUU: 0.277
AGCUUUCUUUCACCCAGCUUUGUUGUUUUAAUUAACUGCCCAUUAGAGAGACUGUACUUUUUUUCUAGAAAAAAAUAUUGUGAAACAGUUUUCUGUAGUGAUAUUGUUGA: 0.485
AUUUGGCAUUCCAGAAAGGAUUGCUGAUAAUUUAGAUGAUGCAGGGAAGGCCACUGUUAGUAAGGUGCCAGAGCUGCGCCCUUUCCUCCAUCUGCCAUGCCCUAGCCACU: 0.336
CACUUUUAGCAAAGUUUCUGUGGAUGCUAGUAAUUUAUACUUGAUCAGUUGUAUUCUAGUAAAGAACCUCUUUGGGGACUGUAGGAAAGCAUGUUUUUGUGGUUAUAAAA: 16
CUCCCCUCACCCCAACUCUAGGUUUCCAGGCCUCACAGCCAAGCUGAAGCUUGGAGAAAACUCUGCAUUCCCAUGAGGGCAAAGGCAGCUGCCCUCCCUGACCCUAUAGC: 1.06
GAGCCAAGCCUGGUAGGAUUUGUCUUUAAAAGUAGCAAUAGUAAGAGAGGCAAGUCAAGGGAAAGAGAACAGUAGACAUGCCUCUCAUCAUUCUCUUGGUGUCUCUUUUU: 0.577
AAGGGGAUCUGAGAAAUUAUGUAAUAGGGAGUGGGAAUAAAACUACUUAAUUCCUGUGGGCAGGUUAUAUUUUAAGUUCAAAUGCAUUGCUUUAACCUUUGGUUACUUUU: 1.42

Study 2 — method: DHFR PCA, deep sequencing; matrix: yeast; added: (+)-ABA 0.39 µM; baseline: wild-type fitted maximum; direction: higher = stronger binding; measurement: relative binding score
Target: ABI1, truncated, D143A, DHFR fusion (Arabidopsis thaliana)
Notes: methotrexate growth selection, single substitutions
Starting sequence: PYL1, truncated, DHFR fusion (Arabidopsis thaliana); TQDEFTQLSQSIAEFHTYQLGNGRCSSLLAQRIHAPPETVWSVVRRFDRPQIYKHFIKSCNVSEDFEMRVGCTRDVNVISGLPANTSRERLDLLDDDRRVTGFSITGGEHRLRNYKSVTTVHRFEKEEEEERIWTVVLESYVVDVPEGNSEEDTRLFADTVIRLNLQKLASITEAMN; partner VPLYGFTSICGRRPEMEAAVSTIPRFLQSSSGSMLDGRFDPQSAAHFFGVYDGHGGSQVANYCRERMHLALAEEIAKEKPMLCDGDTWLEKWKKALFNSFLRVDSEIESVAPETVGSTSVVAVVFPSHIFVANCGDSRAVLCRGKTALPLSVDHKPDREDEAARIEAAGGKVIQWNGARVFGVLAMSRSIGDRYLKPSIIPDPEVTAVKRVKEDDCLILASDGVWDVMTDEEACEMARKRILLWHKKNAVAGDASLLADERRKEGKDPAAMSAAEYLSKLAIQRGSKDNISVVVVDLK
S11A: 58.7%
L93K: 3.95%
L91S: -21.2%
Q2G: 19.1%
N165R: 12.9%
S150D: 27.1%
L91C: 2.63%
R99G: -5.65%
F47I: -4.23%
H122F: -7.73%
K116M: -17.2%
E130N: 39.6%
E139R: 13.4%
V136S: -12.7%
I133D: 74%

Study 3 — target: CCNB3, cyclin fold, Cln2 fusion (human); method: yeast growth competition, sequencing; matrix: yeast; notes: weak parent motif; baseline: not given; direction: higher = stronger binding; measurement: normalised enrichment score
Starting sequence: WEE1 docking peptide (human); HKTFRKLRLFDTP; partner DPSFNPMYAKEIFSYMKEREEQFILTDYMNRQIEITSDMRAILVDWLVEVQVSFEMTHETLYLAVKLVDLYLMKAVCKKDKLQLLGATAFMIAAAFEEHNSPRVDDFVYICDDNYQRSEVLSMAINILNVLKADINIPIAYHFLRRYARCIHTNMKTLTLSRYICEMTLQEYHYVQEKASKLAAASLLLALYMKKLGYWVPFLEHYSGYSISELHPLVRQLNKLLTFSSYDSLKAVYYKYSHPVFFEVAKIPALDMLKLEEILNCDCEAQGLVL
F10Q: -0.454
R8S: 0.764
T12Y: -0.059
K6L: -0.151
K6E: 0.256
F10T: 0.0514
K2F: -0.23
R5E: 0.752
T12F: 0.0778
T12D: 0.652
L9Q: 0.266
R8V: 0.444
L7H: -0.269

Single results of other studies
PhoQ, residues 284 288 289 292 302 303 SSCCRF
fold induction (PhoP, residues 12 14 15 18 19 LYHSL (Escherichia coli, UniProt P23836); Sort-seq, item: YFP reporter; E. coli; PhoQ-PhoP variant library, added: 10 µM Mg2+; baseline: high Mg2+ state, higher = stronger signaling): 1.7

Repeated from above (study 3):
L7H: -0.269
K6E: 0.256
L9Q: 0.266
T12D: 0.652
K6L: -0.151
